Experimental data of several laboratories.
Parts stem from different laboratories: compare values within a part only.
Chain of UniProt P50613 (whole entry, looked up): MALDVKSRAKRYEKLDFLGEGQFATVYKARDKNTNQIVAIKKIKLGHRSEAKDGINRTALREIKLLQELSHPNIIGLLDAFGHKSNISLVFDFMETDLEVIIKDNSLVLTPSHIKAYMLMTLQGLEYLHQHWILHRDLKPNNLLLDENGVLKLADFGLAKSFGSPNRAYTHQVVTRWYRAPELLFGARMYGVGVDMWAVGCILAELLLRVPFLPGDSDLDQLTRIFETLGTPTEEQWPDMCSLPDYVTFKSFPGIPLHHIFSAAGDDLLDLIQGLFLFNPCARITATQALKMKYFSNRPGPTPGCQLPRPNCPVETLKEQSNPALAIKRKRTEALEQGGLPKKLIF
Chain of UniProt Q8NFD2 (whole entry, looked up): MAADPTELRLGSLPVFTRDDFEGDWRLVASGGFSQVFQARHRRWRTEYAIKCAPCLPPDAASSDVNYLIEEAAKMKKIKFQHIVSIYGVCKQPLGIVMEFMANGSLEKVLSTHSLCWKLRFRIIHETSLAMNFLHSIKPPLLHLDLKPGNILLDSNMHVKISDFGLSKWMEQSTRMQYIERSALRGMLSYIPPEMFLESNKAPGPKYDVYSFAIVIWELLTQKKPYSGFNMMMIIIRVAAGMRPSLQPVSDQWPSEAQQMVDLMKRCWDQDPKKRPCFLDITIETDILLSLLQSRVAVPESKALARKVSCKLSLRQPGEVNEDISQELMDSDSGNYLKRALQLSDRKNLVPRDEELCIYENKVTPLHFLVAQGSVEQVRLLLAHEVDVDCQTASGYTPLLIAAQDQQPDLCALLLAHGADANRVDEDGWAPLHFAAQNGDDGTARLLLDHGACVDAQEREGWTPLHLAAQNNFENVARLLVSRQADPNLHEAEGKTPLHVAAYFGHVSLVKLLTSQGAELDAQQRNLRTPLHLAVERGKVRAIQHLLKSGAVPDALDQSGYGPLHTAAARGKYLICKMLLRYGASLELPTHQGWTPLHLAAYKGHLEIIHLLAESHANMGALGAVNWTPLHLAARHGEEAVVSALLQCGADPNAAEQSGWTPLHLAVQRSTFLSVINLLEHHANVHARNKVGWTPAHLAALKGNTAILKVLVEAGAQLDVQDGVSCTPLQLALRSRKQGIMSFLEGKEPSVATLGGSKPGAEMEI
Chain of UniProt Q9HCP0 (whole entry, looked up): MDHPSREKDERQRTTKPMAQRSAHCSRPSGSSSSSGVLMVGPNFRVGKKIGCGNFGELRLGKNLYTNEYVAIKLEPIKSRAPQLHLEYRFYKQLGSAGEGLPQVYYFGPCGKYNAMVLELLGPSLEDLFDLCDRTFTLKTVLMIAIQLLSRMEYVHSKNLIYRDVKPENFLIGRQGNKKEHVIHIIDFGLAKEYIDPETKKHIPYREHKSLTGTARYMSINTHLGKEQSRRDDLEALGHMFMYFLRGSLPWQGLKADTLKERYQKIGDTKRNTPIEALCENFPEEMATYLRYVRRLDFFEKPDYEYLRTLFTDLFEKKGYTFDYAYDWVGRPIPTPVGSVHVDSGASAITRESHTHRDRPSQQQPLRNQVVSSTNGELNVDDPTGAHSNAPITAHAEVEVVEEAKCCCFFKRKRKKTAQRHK
Chain of UniProt P53355 (whole entry, looked up): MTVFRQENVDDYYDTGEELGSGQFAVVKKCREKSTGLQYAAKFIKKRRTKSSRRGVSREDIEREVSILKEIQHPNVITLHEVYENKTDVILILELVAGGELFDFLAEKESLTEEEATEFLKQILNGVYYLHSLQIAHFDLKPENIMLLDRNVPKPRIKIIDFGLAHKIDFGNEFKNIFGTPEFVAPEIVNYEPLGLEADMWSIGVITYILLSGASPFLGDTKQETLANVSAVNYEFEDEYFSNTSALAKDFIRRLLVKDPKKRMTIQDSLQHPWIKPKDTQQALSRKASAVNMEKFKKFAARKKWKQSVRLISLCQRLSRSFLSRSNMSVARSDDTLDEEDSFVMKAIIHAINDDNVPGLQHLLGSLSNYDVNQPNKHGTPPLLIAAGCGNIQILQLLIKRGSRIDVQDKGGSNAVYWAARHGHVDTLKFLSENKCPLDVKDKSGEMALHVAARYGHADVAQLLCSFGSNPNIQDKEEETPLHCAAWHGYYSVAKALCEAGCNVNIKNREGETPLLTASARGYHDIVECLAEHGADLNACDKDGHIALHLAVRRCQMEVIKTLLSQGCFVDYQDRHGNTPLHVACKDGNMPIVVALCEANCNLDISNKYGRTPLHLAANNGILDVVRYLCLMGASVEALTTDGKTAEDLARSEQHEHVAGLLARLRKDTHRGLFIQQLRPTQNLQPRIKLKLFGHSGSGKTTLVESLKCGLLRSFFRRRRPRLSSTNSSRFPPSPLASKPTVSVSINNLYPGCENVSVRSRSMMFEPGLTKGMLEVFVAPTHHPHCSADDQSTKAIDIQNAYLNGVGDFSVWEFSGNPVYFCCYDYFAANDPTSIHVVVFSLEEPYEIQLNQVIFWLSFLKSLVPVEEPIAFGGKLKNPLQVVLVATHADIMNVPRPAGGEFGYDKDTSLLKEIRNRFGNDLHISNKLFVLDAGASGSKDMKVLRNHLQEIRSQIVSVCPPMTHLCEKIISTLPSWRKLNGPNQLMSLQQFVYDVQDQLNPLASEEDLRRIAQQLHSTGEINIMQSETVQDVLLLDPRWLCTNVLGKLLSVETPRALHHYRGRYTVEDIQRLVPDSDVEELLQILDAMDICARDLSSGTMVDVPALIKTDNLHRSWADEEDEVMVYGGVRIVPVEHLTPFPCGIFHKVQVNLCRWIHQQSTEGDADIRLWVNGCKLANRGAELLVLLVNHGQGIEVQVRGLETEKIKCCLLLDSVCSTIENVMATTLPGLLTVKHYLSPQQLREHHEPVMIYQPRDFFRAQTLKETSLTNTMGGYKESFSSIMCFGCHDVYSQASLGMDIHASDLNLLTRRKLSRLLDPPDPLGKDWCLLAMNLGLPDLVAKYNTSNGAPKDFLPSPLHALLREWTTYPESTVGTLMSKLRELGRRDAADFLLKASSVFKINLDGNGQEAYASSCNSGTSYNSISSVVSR

Sample 1 — technique: aptamer microarray, sandwich; molecule type: DNA with 2'F-ANA; sample: in vitro; concentration: 200 nM; together with: Cy3 exosite-II aptamer, 400 nM; direction: higher = stronger binding; oligonucleotide: GGTTGGTGTGGTTGG
Target: Prothrombin, mature alpha-thrombin (F2, Homo sapiens, UniProt P00734)
Notes: whole 15-mer aptamer, many near background
Modification	mean fluorescence intensity [a.u.]
2'F-ANA at 1 2 3 6 7 10 11 15	164
2'F-ANA at 3 4 5 8 11 12 13	141
2'F-ANA at 3 4 6 8 9 11 13	441
2'F-ANA at 1 3 4 6 7 8 9 10	65.8
2'F-ANA at 1 8 15	281
2'F-ANA at 1 4 7 8 9 10 11 12 13 14	52.5
2'F-ANA at 1 5 6 9 11 12 13 15	66.2
2'F-ANA at 4 6 8 9 12 14 15	102

Sample 2 — technique: protein-binding microarray; molecule type: double-stranded DNA, one strand shown; sample: in vitro; concentration: 250 nM; notes: 60-bp whole probe; together with: salmon DNA 0.4 mg/ml; reference: random background probes; direction: higher = stronger binding; all sequences stand within: GCCTAGCAC … GTCTTGATTCGCTTGACGCTGCTG
Target: Interferon regulatory factor 7, full length, phosphomimetic (IRF7, Homo sapiens, UniProt Q92985, residues 1-503, S101K/S471D/S472D/S475D/S476D/S477D/S483D/S484D/S487D)
Chain of UniProt Q92985 (whole entry, unmodified, looked up): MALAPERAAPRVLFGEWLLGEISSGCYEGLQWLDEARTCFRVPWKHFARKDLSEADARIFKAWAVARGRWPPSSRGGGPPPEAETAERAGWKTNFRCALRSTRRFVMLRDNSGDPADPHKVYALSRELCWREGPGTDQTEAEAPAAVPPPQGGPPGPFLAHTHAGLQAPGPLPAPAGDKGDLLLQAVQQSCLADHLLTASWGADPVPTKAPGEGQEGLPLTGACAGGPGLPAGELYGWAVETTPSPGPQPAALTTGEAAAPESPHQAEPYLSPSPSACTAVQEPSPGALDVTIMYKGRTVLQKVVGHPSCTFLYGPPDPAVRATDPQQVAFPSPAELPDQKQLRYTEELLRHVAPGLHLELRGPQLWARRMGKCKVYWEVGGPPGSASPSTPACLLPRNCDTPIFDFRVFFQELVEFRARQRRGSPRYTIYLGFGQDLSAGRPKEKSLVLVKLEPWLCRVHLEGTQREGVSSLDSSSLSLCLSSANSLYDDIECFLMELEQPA
Oligonucleotide	log fluorescence
TCATGAGTCCCTATCTCACTGTGCTAG	-0.169 z-score
GACGATCTCGGTTTCGGGACGTGCTAG	3.64 z-score
TTAGGACTGGACTAACGGTTAGTGCTA	-0.42 z-score
TTCGGTTTCCTTTTCCTTTAGTGCTAG	8.11 z-score
TTAGATCTCAGTACCGATTAGTGCTAG	0.293 z-score
GAATGTCTTCCCCTCTCTTTGTGCTAG	0.384 z-score
TCAATTTTCTAAATTCCACTGTGCTAG	0.682 z-score
TCACCTCTAACTTTCCAACTGTGCTAG	0.345 z-score

Sample 3 — effect on: cell-free assay; technique: competition with immobilised ligand; concentration: 1 µM
Structure (SMILES): CNC(=O)Nc1ccc2c(c1)CC[C@@]21OC(=O)N(CC(=O)N(Cc2ccc(F)cc2)[C@@H](C)C(F)(F)F)C1=O
target	remaining binding [%]
CDK7 (Homo sapiens, UniProt P50613)	78
CSNK1G1 (Homo sapiens, UniProt Q9HCP0)	94
ANKK1 (Homo sapiens, UniProt Q8NFD2)	81
DAPK1 (Homo sapiens, UniProt P53355)	96

Sample 4 — effect on: enzyme activity; action: inhibitor; concentration: 0.5 µM; reference: control
Target: Protein kinase C gamma type (PRKCG, Homo sapiens, UniProt P05129)
SMILES	remaining activity [%]
COc1cc2ncnc(Nc3ccc(F)c(Cl)c3)c2cc1OCCCN1CCOCC1	84.2
Cc1ccc(Nc2nccc(N(C)c3ccc4c(C)n(C)nc4c3)n2)cc1S(N)(=O)=O	93.5
Nc1ccc2ncnc(NCCc3ccc(Oc4ccccc4)cc3)c2c1	95.2
COc1cc2nccc(Oc3ccc(NC(=S)NC(=O)c4ccccc4C)cc3)c2cc1OC	100
CNC(=O)c1cc(Oc2ccc(NC(=O)Nc3ccc(Cl)c(C(F)(F)F)c3)cc2)ccn1	94.7
CC(C)[C@H](CO)Nc1nc(Nc2cc(N)cc(Cl)c2)c2ncn(C(C)C)c2n1	107
Cc1nc(-c2ccccc2)c(-c2ccncc2)o1	101
OCC(O)CCON=C1C(c2c(O)[nH]c3ccccc23)=Nc2ccccc21 (stereo not drawn)	92
N#CC(C#N)=C(N)/C(C#N)=C/c1ccc(O)cc1	105
COc1ccc(C(=O)Nc2sc3c(c2C(N)=O)CCCC3)cc1OC	93
COc1cc2ncnc(Nc3ccc(Oc4ccccc4)cc3)c2cc1OC	84.6
Nc1[nH]nc2nc3ccccc3nc12	97.3
O=C1NC(=O)C(c2cn(CCCO)c3ncccc23)=C1c1cnccn1	93.1
COc1ccc(CNC(=O)Nc2ncc([N+](=O)[O-])s2)cc1	99.8
O=S(=O)(c1cccc2cnccc12)N1CCCNCC1	110
CN(C)c1ccc(C=C2C(=O)Nc3ccccc32)cc1	96.8

Repeated from above (sample 4):
SMILES	remaining activity [%]
Cc1nc(-c2ccccc2)c(-c2ccncc2)o1	101
Cc1ccc(Nc2nccc(N(C)c3ccc4c(C)n(C)nc4c3)n2)cc1S(N)(=O)=O	93.5
COc1cc2nccc(Oc3ccc(NC(=S)NC(=O)c4ccccc4C)cc3)c2cc1OC	100
O=S(=O)(c1cccc2cnccc12)N1CCCNCC1	110
